# Measured values gathered from unrelated publications.
# Every numbered part comes from another study and shows a few of its results, in no order. Substitutions count along the parent as printed.

# Series 1
# Target: CREB3L1, bZIP domain (human)
# Method: DHFR protein complementation
# Sample: yeast
# Notes: single substitutions, most at no-binding floor
# Relative to: wild-type JUN-FOS pair
# Direction: higher = stronger binding
# Parent: JUN, bZIP domain (human); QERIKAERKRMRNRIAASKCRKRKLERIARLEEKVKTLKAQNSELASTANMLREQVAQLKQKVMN; partner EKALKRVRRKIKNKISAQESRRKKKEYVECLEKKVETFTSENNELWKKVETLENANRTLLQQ
Change,binding fitness [natural log]
T37K,-1.43
K34V,-1.32
K34P,-1.52
A29V,-1.37
E44A,-1.39
V56F,-1.52
A57M,-1.47
L38Y,-1.52
L45P,-1.53
Q55A,-1.49
R30I,-1.39
L31M,-1.49
S43I,-1.32
V35Y,-1.72
A40C,-1.17
S43Y,-1.18
L45F,-1.31
E54L,-1.41
A46Y,-1.24
Q41P,-1.54
E44F,-1.49
V56Y,-1.5
R53K,-1.5
E44I,-1.36
E54Q,-1.45

# Series 2
# Target: RING finger protein unkempt homolog, zinc fingers 1-6, GST-SBP tag (UNK, Homo sapiens, UniProt Q9C0B0, residues 30-357)
# Method: RNA Bind-n-Seq
# Form: RNA
# Sample: in vitro
# Concentration: not given
# Notes: RNA with constant flanks, human and mouse sites, ends assumed
# Relative to: input RNA pool
# Direction: higher = stronger binding
# Shared flanks, not repeated: GGGAGUUCUACAGUCCGACGAUC … CAACAGAGGAUUGAGCAUCA
# Construct (chain): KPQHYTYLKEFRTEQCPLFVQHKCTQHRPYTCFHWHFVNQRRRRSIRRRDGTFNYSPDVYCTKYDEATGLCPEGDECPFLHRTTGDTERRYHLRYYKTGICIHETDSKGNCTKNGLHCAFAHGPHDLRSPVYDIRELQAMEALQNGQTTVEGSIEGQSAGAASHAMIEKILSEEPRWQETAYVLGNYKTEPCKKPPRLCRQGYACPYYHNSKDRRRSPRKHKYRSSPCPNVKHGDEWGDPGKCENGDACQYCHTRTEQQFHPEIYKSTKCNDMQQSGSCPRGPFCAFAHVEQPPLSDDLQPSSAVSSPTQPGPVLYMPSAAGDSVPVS
Oligonucleotide,bound/input enrichment [ratio]
AGGAUAGUAAGUUCAGCUAAUGAACAAAAAAGAUUUGAGUUCUUGGUUUGGGCUAAAACUAUAGAGAGAUCAUGCCCUUUUGUACGGUGCAGGUUAUUGUCAUUCGACCGAUAACUUAUU,0.206
UCCUCCCUGGGAGCGUUCGCGCUCUGGGUCACUGGAUUGUUUCGUGUUUAUGUGUGAUUGUACCAAGGAACUUAGCCUCAUGUAGCAUGUACAGGGUUGUAAUGGUGACCCAGCAGCGAG,0.182
UAAAAGACAUCCAGCCAAACUCUCAGUCUUGCCUUAACAAUGUUCCAGAGGCUGAAUAAAAUGUUUGUGGGUGAAGUCAGUUCUUCCUCCAACCAAGAACCAGAAUUCAAUGAGAAAGAA,0.169
CUAUAUCUGAAACUUACAUUUGACCUCAUAGAGAAAGGCUAUCUAGUGUUAAAGAGCUCUAGCUACAAAGUAGUUCCUGUUUCGCUCUCAGAGGUUUAUUUACUCCAGUGCAAUAUGAAG,0.415
AAAUUUGCAUAAUGUCAUAUACAUGUCCUUUGUACUGUUAUUUGUGUACACUUUGCUUUUGAAUUGUUUGAUUUGUUACAUUAAAUUCUAUAUCUUGACAUUUUCUUUCUUUAUGAGCAU,0.685
GUUGCCAUGUCGGGGAAGCUAGUCCCCGGCAGCCUGGAUGACUGCACAGCGGUGCCCUGGUAUAGCAGAAAAGAGCAGUGAGCUGGAAGGUUAGAGACCGGGCCUCUUACCCUGGAACUC,3.86
ACUGACCAAUGCACCAAAUGAAUGCUAAAAUGCACUUUAGGUUUGUUUUUGCACUUCUGAUAGUAUCUUUCAACCACGAUGUACUGGGCAAGAAUUUGAAAUACAGGAUUUAUGAGGAAC,0.387
GACCUCGCCGAGGCUGGAGGCCGAGCUCUGCAGAGCUUACAAUUGAGACUGCUAACCCCUACCUUUGAAGGGAUCAACGGAUUGUUGUUGAAACAACAUUUAGUUCAGAAUCCAGUCAGA,0.0683
AGUCUGUCUGGAUGUUACCAGAUCACAGACCAUGGUCUCAGGGCUCUGACUCUGGGAGGAGGGCUGCCUUACCUGGAGCACCUGAAUCUCUCUGGCUGUCUGACUGUAACUGGUGCAGGG,0.23
CCAGAGGUGAAAGGCUAUUGGGCAAGUUUGGAUGCAUCUACUCAAACCACCCAUGAACUCACCAUUCCAAAUAACUUAAUUGGCUGCAUAAUCGGGCGCCAAGGCGCCAACAUUAAUGAG,0.121
AAACAUGAAUGUCAAGCAAAUGGACCAGAAGAUCUCAAUCGGGCUUGUAUUGCUGAAAAGUUAGGUGGAUCCUUAAUUGUAGCCUUUGAAGGAUGCCCUGUGUAGAUUAUUCAGUGCCAC,0.518

# Series 3
# Target: Fragile X messenger ribonucleoprotein 1, C-terminal low-complexity region (Fmr1, Mus musculus, UniProt P35922)
# Method: RNA Bind-n-Seq
# Form: RNA
# Sample: in vitro
# Concentration: 200 nM
# Notes: whole 134-nt RNA, ends assumed
# With: 150 mM LiCl
# Relative to: input library
# Direction: higher = stronger binding
# All molecules: 7-deaza-guanosine replaces G
# Shared flanks, not repeated: GGGAGUUCUACAGUCCGACGAUC … UGGAAUUCUCGGGUGUCAAGG
Oligonucleotide,log2 enrichment
CCUUUUUGAGAAGGCCGGACCCAUUUGGGAUCUACGUCUUAUGAUGGAUCCACUGUCCGGUCAGAAUAGAGGGUAUGCAUUUAUCACCUU,-0.0843
UCCUCAAGUCCUGUGCUACACAUCGUAUGUACCGAAUCGGAGGGGAGGGAGGAAAGUAUUAUGUUACGCCGUUCGGAUCUGCACUUCCAG,-1.73
UGCUGGCAGCCAAGCAGCAGCAGGAGAUGCUGGCAGCCAAGCGGCAGCAGGAGCUGGAGCAGCAGCGGCAGCGGGAGCAGCAGCGGCAGG,-1.17
UCCUGUGCUACACAUCGUAUGUACCGAAUCGGGGAAAAAGGGGAAAAAGGGGAAAAAGGGAAAGUAUUAUGUUACGCCGUUCGGAUCUGC,-0.11
CCUCAAGUCCUGUGCUACACAUCGUAUGUACCGAAUCGGUUGGUUGGGUUGGGAAAGUAUUAUGUUACGCCGUUCGGAUCUGCACUUCCA,-0.0183
UCCUCAAGUCCUGUGCUACACAUCGUAUGUACCGAAUCGGGUGGGUGGUGGAAAGUAUUAUGUUACGCCGUUCGGAUCUGCACUUCCAGC,0.098
CACAGACAACACGCACCCACACAGACACAGAGGGAAGGGGUAAAGAUGGGGACAGGGUGCACAGCAGGGCGGGGUAGGACCCCAGCCCCU,-0.313
GCAGGAAGCAAAAACAAAUGGAAAUGCUUCGGAUAGUGGCAGGGGUGGGGGUUGCUAAGGAAAGGGUGGGAUGGGAGUGGGUAAAGAGUU,1.42
GCAGGAAGUAAAAACAAAUGGAAAUGCUUCGGAUAGUGGCAGGGGUGGGGAAAGCUAAGGAAAGGGUGGGAUGGGAGUGGGUAAAGAGUU,1.76
UAACUUUAGAGGAGGAUCUGAUGGAUAUGGCAGUGGACGUGGAUUUGGAGAUGGCUAUAAUGGGUAUGGAGGAGGACCUGGAGGUGGCAA,0.103
UGGCUUUCACCCCCAACCAGUGACCAAAGACUUGACCACUCAAAGUCCAGCUCCCCAGAACACUGCUCGACAUGGACACCGGUGUGAUUG,1.43

# Series 4
# Molecule: SAPSAPIRLPHTAALS
# Observed: yeast growth
# Method: competitive growth deep sequencing
# Form: peptide
# Organism: Saccharomyces cerevisiae
# Notes: peptide tiling library
# Direction: direction not given
target,enrichment score
human cyclin E1-Cln2 fusion,0.922
human cyclin F-Cln2 fusion,0.171
human cyclin B1-Cln2 fusion,-0.208
human cyclin E2-Cln2 fusion,0.937
human cyclin D1-Cln2 fusion,1.84

# Series 5
# Target: Histone acetyltransferase KAT6A, both winged helices, GST fusion (KAT6A, Homo sapiens, UniProt Q92794, residues 1-181)
# Method: protein binding microarray
# Form: double-stranded DNA, one strand shown
# Sample: in vitro
# Concentration: not given
# Notes: 8-mer, flanks averaged, mean of 2 arrays, mostly near background
# Relative to: not given
# Direction: higher = stronger binding
# Residues (chain): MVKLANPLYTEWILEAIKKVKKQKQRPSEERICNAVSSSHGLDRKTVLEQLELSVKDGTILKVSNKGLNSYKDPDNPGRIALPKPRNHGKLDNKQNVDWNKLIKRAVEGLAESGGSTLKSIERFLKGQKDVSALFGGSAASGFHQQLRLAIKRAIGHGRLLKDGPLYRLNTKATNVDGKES
Oligonucleotide,E-score
CCCAGTAC,-0.186
GACAATCA,-0.16
GAATCTCC,-0.0247
AGTTTGCG,0.135
CGAGACTC,-0.0342
CCCTTTAC,-0.04
CACGAAGG,-0.0164
ACCCATGC,0.00668
TAGCGTGA,0.0948
ACCAACGC,0.108
ACGTGACG,0.131
AAGGCCAG,-0.11
CACTCAAA,-0.0675
CCACTTGA,-0.158
CCTCCTCA,-0.0721
AGCCACTC,-0.0825

# Series 6
# Target: Sal-like protein 4, full length isoform A (SALL4, Homo sapiens, UniProt Q9UJQ4, residues 1-1053)
# UniProt Q9UJQ4, sequence (whole entry, looked up): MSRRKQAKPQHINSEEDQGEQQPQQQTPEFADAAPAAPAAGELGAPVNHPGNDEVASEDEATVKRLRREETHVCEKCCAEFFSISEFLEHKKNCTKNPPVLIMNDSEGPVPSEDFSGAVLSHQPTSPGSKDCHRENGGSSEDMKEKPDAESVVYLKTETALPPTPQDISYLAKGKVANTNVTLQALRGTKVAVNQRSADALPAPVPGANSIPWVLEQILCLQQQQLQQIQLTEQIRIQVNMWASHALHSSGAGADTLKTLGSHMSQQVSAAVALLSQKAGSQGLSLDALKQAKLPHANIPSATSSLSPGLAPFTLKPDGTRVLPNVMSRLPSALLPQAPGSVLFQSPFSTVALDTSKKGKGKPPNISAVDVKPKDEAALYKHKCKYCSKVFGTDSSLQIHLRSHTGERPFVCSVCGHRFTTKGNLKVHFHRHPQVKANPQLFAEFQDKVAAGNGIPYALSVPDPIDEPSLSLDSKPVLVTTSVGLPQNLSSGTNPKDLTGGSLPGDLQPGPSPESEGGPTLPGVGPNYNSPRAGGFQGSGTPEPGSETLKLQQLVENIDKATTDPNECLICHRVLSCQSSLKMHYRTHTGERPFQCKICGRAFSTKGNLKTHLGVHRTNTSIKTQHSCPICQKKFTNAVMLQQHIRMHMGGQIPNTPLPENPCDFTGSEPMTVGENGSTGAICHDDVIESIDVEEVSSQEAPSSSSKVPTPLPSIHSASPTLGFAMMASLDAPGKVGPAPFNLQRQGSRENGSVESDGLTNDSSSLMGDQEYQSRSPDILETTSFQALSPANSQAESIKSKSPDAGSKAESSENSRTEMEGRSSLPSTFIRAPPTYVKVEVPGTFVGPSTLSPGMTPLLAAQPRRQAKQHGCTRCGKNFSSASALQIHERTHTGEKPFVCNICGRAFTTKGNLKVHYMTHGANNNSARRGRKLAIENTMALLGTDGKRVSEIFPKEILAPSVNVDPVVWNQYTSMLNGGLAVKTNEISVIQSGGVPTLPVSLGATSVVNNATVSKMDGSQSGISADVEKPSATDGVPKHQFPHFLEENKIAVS
# Method: universal PBM
# Form: double-stranded DNA, one strand shown
# Sample: in vitro
# Concentration: 600 nM
# Notes: 8-mer, flanks averaged, mean of replicates
# Direction: higher = stronger binding
Oligonucleotide,E-score
AGATTGTG,0.00519
AGTAAAAC,0.201
ACCCTAAC,-0.0669
CTGGTTAC,-0.165
ACTCAAAT,0.254
ACCTTGGC,-0.168
CACGGATC,-0.244
GATTTCGA,0.0535
ACGATACA,0.127
AATCCGAG,0.0423
CAAAATCC,0.0247
ATTGCTCA,0.133
CATGGTCC,-0.29
CTCTAACA,0.106
CCACGCAC,-0.119
TCGCCTCA,-0.072
AAATGGCC,-0.165
CGAGGCGA,-0.259
GCGTGTAA,-0.0574
ACTACGGG,-0.196
CTCTAGAC,-0.00593
ACACGACT,0.0318
TGATTTAA,0.278
GTAAAGCA,0.152
AGCTGCGA,-0.138
